Published values gathered from unrelated publications.
Parts stem from different laboratories: compare values within a part only.

Series 1 — method: protein-binding microarray; molecule type: double-stranded DNA, one strand shown; medium: in vitro; tested at: 2540 nM top; setting: 60-bp whole probe; together with: salmon DNA 0.4 mg/ml; reference: random background probes; reading: higher = stronger binding; endpoint: fitted relative affinity; shared flanks, not repeated: GCCTAGCAC … GTCTTGATTCGCTTGACGCTGCTG
Target: Interferon regulatory factor 3, full length, phosphomimetic (IRF3, Homo sapiens, UniProt Q14653, residues 1-427, S386D/S396D/S398D/S402D/T404D/S405D)
Residues (chain): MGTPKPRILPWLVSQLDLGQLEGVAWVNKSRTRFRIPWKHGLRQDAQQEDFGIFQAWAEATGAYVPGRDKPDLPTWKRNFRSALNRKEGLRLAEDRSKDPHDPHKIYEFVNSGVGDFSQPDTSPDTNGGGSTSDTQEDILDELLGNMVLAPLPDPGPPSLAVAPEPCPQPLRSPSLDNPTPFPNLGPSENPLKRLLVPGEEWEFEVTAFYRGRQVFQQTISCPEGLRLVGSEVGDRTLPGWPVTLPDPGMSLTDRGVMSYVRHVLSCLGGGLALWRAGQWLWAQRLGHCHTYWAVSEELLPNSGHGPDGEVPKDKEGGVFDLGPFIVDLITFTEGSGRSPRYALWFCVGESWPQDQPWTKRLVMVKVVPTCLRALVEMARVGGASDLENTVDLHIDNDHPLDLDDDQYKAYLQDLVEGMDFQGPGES
TGGCCTGTGCTATTTATAAGGGTGCTA: -0.282 z-score
TTAGATTTCAGTTCCGATTGGTGCTAG: 3.52 z-score
TCAGAACTGAGTTTCGATTAGTGCTAG: 2.92 z-score
GACGAACTCGGGTATCGAGACGTGCTA: -0.128 z-score
TTAGGTTTCGACACTGGGTTTGTGCTA: 2.4 z-score
GACGGACTGCTTATCCTCACGTGCTAG: -0.306 z-score
GACGGTATCGGGCTGGGGACGTGCTAG: 0.536 z-score
TCACGTCTCCACCTGGGACTGTGCTAG: 0.203 z-score
TTCGGTTTCGGTTCCGGTTAGTGCTAG: 10.8 z-score
TCATCGATTTCTCTTTCCACTGTGCTA: 2.28 z-score
GCCTCTAGGTTTTCTGGAGACGTGCTA: -0.374 z-score
TAGTCTCTTCTGCAGCCTTTGTGCTAG: 0.368 z-score
GCAAACCCCATTCTCAGCCCGTGCTAG: 1.12 z-score
TTAGATTTCAGTGCCGATTAGTGCTAG: 1.3 z-score
TCAAGTTTCACTGCTGCACTGTGCTAG: 2.06 z-score
TCACCTGTGCTATTTATAACTGTGCTA: 0.372 z-score
TCACCAATGCTTCTGGTACTGTGCTAG: -0.354 z-score
TTCCTTCTTGAACTCTTTACGTGCTAG: 2.07 z-score
TTAGGACTGATACTGCTTTAGTGCTAG: -0.0329 z-score
GAATGTTTTTCATTGTTTTTGTGCTAG: 0.798 z-score
GACCTCGTCTCTATCAAAAAGTGCTAG: 0.376 z-score
TTAGAACTGAGCATCGATTAGTGCTAG: -0.374 z-score
TTAGATTCCAGTTTCGTTTAGTGCTAG: 4.92 z-score
GACGGATTGGGTTTCGGGACGTGCTAG: 1.74 z-score
GACTAACTGAGACTGGAGACGTGCTAG: -0.129 z-score

Series 2 — method: RNA Bind-n-Seq; molecule type: RNA; medium: in vitro; tested at: not given; setting: RNA with constant flanks, ends assumed; reference: input RNA pool; reading: higher = stronger binding; endpoint: bound/input enrichment
Target: RING finger protein unkempt homolog, zinc fingers 1-6, GST-SBP tag (UNK, Homo sapiens, UniProt Q9C0B0, residues 30-357)
Chain of UniProt Q9C0B0 (30-357, looked up): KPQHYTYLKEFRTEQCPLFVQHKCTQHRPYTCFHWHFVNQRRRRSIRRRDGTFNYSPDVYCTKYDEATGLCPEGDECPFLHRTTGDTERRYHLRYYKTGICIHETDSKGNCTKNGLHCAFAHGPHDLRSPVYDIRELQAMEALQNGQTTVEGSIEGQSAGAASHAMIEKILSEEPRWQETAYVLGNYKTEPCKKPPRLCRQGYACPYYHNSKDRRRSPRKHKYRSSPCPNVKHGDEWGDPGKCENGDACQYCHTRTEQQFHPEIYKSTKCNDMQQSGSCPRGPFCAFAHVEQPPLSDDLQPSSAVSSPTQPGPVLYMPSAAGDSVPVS
Shared flanks, not repeated: GGGAGUUCUACAGUCCGACGAUC … CAACAGAGGAUUGAGCAUCA
AAGGUGCUCUUAUUGCCUCCAGAUGUUUCUGCUUUGGCCACUCAAGCAGAGAUAGAGAGCACCGUUAAACCCAAAGUUCUUGUGAAAGAAGCUGAGAAAAAACUUCCUUCCGAUACAGAA: 0.191 ratio
CCCCCAGACACUGCUGCCAGGCUGGGCUGGUCCCAGCCCUUAGGUAACCUCCAAGCUCCCUCCGGCUAUGAUAAGUUUAGCUAUUCUUGGCGGAGCAAGAAAGGCACCAAGUUCCACCAG: 0.292 ratio
GGGUACGAUGUUUUGGCUAAUCCCCCAGGACCAGAAGACCCAGAUGAGGAAGAGGAUACCUACCGCGAUUUGUUUGAGUUUGAGUUUGCUGAAAGCUCCCUCUUGCCGUGUUAUAACAUC: 0.174 ratio
AAGUGGUUACGGGAAAUUCUGAUCUGCAGAAAUAAAUUUCUUCUUAAAAAUAAGCAGGCAGACCGAAGCUCCUGUCAUUCUCUCUACCUUUAUGGAGUAGGAUGUGAAAUGUCUGCUACU: 0.194 ratio
UUUUCCUGGAUUAUUGUUCCUUUAUAUAUAAAGGUUUGAUCAUCCAGUGCCUUAAUUGGCUUCCGCCGUGUAGGUCUUACCAUUGUCACAGUCAAUUGAUUUGACUUCAGAGCGUAAUGG: 0.163 ratio
UUUGCUGAACUGGAUAAAGUAAUGGGCCCUCUCAUCUUUAAUGCAAGCAUCAUGACAGAUCCCGUUCGUUAUACCCGGCAGGGACUGCACUGGCUUCGCCAGGAUGCCAAGUUGAUAUCU: 0.174 ratio
AAUUUUUUUGGUAUUUUUUUAAACGUUCGUGGAUGAAUGCCAACUUUCAGACGGAGCCCACUCCGCUUGUCCACAUGUAUCUCAAUGCCAACCCUCCAUUUUUCCUCUCCAGAUAUUUUU: 0.526 ratio
CUCUUUGAAUCAUUCAAGAGUUUUGAAGGUCUCUUUUAUUUUCUGGGGUCCAUUGUUAACUUCCGUCAGGACCCAGAUGUGCACUUUAAAUAUAUUCAGGCGGCUUGCAAGACUGGGCAA: 0.623 ratio
UCACUUUGUGAUUAUUUCACUUUAGAUGCUGAUGAUUUGUUUUUGUAUUUUUAAUGGGGGCCGCAGCUGGACUACCCACGUUCUCACACCCACCGUCCGCCCUGCUCCUCCCUGGCUGCC: 0.277 ratio
CUCAGUGAUCAUACACGGAACUCUGCUGAAGGUACAGAAUAUUUCAAAAUGCUUGCCGAUGUUUUUGCUCCAGAAUUUCGAAGGCCAAAGAAUAUACAUCUCCGAAAUUUCUAUAUCAUU: 0.143 ratio
CUCCGAUUUGGAAAAACUAAACAUCUCUCCUGGAGUUCUGGGCAGAGAGAAAACCAGCCGUCAUUUUCUUCGGAACUGUGGAAUGUACCCUUGGGAGUCCCACAAAUCAGGCAGAAGAUG: 0.134 ratio

Series 3 — method: RNA Bind-n-Seq; molecule type: RNA; medium: in vitro; tested at: 200 nM; setting: whole 134-nt RNA, ends assumed; together with: 150 mM KCl; reference: input library; reading: higher = stronger binding; endpoint: log2 enrichment
Target: Fragile X messenger ribonucleoprotein 1, C-terminal low-complexity region (Fmr1, Mus musculus, UniProt P35922)
Shared flanks, not repeated: GGGAGUUCUACAGUCCGACGAUC … UGGAAUUCUCGGGUGUCAAGG
UUUGCUGUUGUUAACCAUCAAGGGACCUUGGAGAGUGGCCACUACACCAGCUUUAUCCGGCAGCACAAAGACCAGUGGUUCAAGUGUGAC: -1.1
AGUCCUGUGCUACACAUCGUAUGUACCGAAUCGGGUUUGGGAAAGGGUUUUUUUGGGAAAGUAUUAUGUUACGCCGUUCGGAUCUGCACU: 0.381
UCCUGUGCUACACAUCGUAUGUACCGAAUCGGGUUUUUUUGGGUUUUUUUGGGAAAGGGAAAGUAUUAUGUUACGCCGUUCGGAUCUGCA: 0.0776
GUCCUGUGCUACACAUCGUAUGUACCGAAUCGGUUUUUGGGGUUUUUGGUUUUUGGGGAAAGUAUUAUGUUACGCCGUUCGGAUCUGCAC: -0.374
UCCUCAAGUCCUGUGCUACACAUCGUAUGUACCGAAUCGGAGGGGAGGAGGAAAGUAUUAUGUUACGCCGUUCGGAUCUGCACUUCCAGC: -0.45
ACCAUGCAGGUGGGCAUCUUUGGGAAGUGGGGCAAGGGGGGGAUAGGGAGGGGGGUAACACUUUGGGAACAGGUGGUCCCAAGUCGUUUC: 0.721
ACCAUGCAGGUGGGCAUCUUUGGGAAGUGGGGCAAGGGGGGGAUAGGGAGGGGGGUAACACUUUGAAAACAGGUGGUCCCAGGUCGUUUC: 0.799
AGUCCUGUGCUACACAUCGUAUGUACCGAAUCGGAAAGGAAAAAAAGGAAAAAAAGGAAAGUAUUAUGUUACGCCGUUCGGAUCUGCACU: -0.604
CCUGUGCUACACAUCGUAUGUACCGAAUCGUGUGUGUGUGUGUGUGUGUGUGUGUGUGUGUAAAGUAUUAUGUUACGCCGUUCGGAUCUG: 0.656
UUAAAGUAGAGGAACAAAAAGAAGAACAGAAGGAGUUAGAGAAAUCUGAAAAAGAAGAGGAUGAGGAUGAUGAUAGGAAAUCUGAAGACG: -0.254
GCAGGAAGUAAAAACAAAUGGAAAUGCUUCGGAUAGUGGCAGGGGUGGGGGUUGCUAAGGAAAGGGUGGGAUGGGAGUGGGUAAAGAGUU: 0.286
GUCCUGUGCUACACAUCGUAUGUACCGAAUCGGGGAAAAAGGAAAAAGGGGAAAAAGGGAAAGUAUUAUGUUACGCCGUUCGGAUCUGCA: 0.0159
AAAAGACAACACGCACCCACACAGACACAGAGGGAAGGGGUUGGGAUGGGGACAGGGUGCACAGCAGGGCGGGGUAGGACCCCAGCCCCU: 1.24
UCCUGUGCUACACAUCGUAUGUACCGAAUCGGGAAAAAAGGGAAAAAAGGGAAAAAAGGAAAGUAUUAUGUUACGCCGUUCGGAUCUGCA: -0.184

Series 4 — method: RNA Bind-n-Seq; molecule type: RNA; medium: in vitro; tested at: 365 nM; reference: no-protein control; reading: higher = stronger binding; endpoint: RBNS enrichment (R)
Target: RNA binding protein fox-1 homolog 2, RRM domain, GST-SBP tag (RBFOX2, Homo sapiens, UniProt O43251-10, residues 100-194)
Setting: natural RNA segment, single round, ends assumed
Shared flanks, not repeated: GGGAGUUCUACAGUCCGACGAUC … UGGAAUUCUCGGGUGCCAA
Target sequence (chain): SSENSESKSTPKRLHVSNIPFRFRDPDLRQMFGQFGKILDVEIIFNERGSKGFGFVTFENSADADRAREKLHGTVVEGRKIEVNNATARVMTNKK
AUACUGACUCCAGGUGUAGUUACAUCUCAGUGCUGUCUUGAGUAUAUAUUUUAUCUCUUAUACCUGUAUCUCCCAACUAGAAACAGCUCCAGUGUUUUUAAGAGAAUGUU: 0.915
UUCUUGCUCCUUCCAUGGCAGGAUGAGAAGGAAGGCCUAAGAGGCUGGCCAGGGGCCUGGUGUAGACACAGUAGAAGACAGUCAACUAUGGGCGCAUUCUGUCUGGAGCU: 0.646
AUUUGGGGUGACAUGCUGUCAAAAGGCUAAUAUAGACUGGGUGUGGUAGUGCACACCUUGAAUCUGAGCACUAGGAAAACAGGCAGGUGGAUUUUUGAGUUCAAGACCAG: 0.492
UGGACCGCUUCCCCUGCCUUCUCUCUGCCGUGGCCCAGAGCCGGCCCAGCUGCACACACACACCAUGCUCUCGCCCUGCUGUAACCUCUGUCUUGGCAGGGCUGUCCCCU: 0.855
GUCUAGCCCUGUGCACUUACCUCAGUACUCAGUACUUACUCAGUACUAACUCAGUACUCGUGGGAGGACACCCGACCCGGGUGUUCUUUGAGAAGCAGCUGAGUGAGGCA: 0.332
CGAAGCAUCCGCUUAGCAGCCUCUGCGUUGGAUCCUUGCACAGCCUUUUCCGGUGCCGUGGUUGGAGUGGGAGCCCACGCCUCGGGAGCUCUGGCCUUGCUCUUUCAAGU: 0.324
GUCUGAAUUGAGUUUGUAUUUCUAGCACCCUGGGUUUUUACAUGUUUGCUCUUUUUGUUUUUGUUUGUCACCCCUCGAUAAAGAAAGUAUAUUCAUUUGUGUUGCUGGUU: 6.57
AGAUUGUCGGGACUAUGACCUUUUUCUCCAGUAUGCUACCUGAUUUGUUUGGCUGGCCACUAGGUGGCAGCAUUGGUUCUACUUCUCUGCUUUUUAAGAGAAAUUUCAGG: 2.15
UCUAACAGAGGAAAAAAAAUUUAAAAAGAGGGUAAGAAAUGACUCCAGUGGGGUGAUUUUAACAUGCAAAUGUCUGAGAUUUCUUCACUUGCUUUCUUCCUUACUCUGCC: 0.339
UGACAGUUAACAUUCUGUUGUUUAUUAUUGCCUUUCUCCACCUUAGAGAGCCAUAAAUAACUCUCUGGUGAAGUGAUUUGCUAUAAUGGGGGUGAGGAGUGGGGAGACUU: 0.469
ACUCAGCGUGACCCAACUUUUCUAGUGUGCCACGGCCCCACCACCUCCUGCAGUACCCACACCAUCACCACUGCUUUCUCUUCCAACAGUGAUCUGUAUUCUUAGUUUCA: 0.896
AUGUUCAUGCCAAAAACAAAUUGUCCCCAAGCCUAUAUGUAUUAAAAUGUUAACUUUGCCUAAAAAUAUUGCAGUGACUUUUUAGGCAGGAGUGCCAAAGGACACUAUGA: 1.16

Excerpt of the above (series 1):
GACCTCGTCTCTATCAAAAAGTGCTAG: 0.376 z-score
TCACCAATGCTTCTGGTACTGTGCTAG: -0.354 z-score
GACGGACTGCTTATCCTCACGTGCTAG: -0.306 z-score
GACTAACTGAGACTGGAGACGTGCTAG: -0.129 z-score
TTCGGTTTCGGTTCCGGTTAGTGCTAG: 10.8 z-score
TAGTCTCTTCTGCAGCCTTTGTGCTAG: 0.368 z-score
